Measurements from different studies.
Protocols differ between the studies behind these lines. ± marks the error that the study gave.
EPHX2: Bifunctional epoxide hydrolase 2 (EPHX2, Homo sapiens, UniProt P34913)
SNCA: Alpha-synuclein (SNCA, Homo sapiens, UniProt P37840)
PGR: Progesterone receptor (PGR, Homo sapiens, UniProt P06401)
NPR2: Atrial natriuretic peptide receptor 2 (NPR2, Homo sapiens, UniProt P20594)

Structure (SMILES)	target	assay	system	setting	scale	measurement	value
CC(=O)N1CCN(C(=O)c2ccc(NC(=O)NC34CC5CC(C)(CC(C)(C5)C3)C4)cc2)CC1	EPHX2					lipophilic ligand efficiency	6.84
CC(=O)N[C@@H](CCCCN)C(=O)N[C@@H](CCC(=O)O)C(=O)N[C@@H](CCCCN)C(=O)N[C@@H](CC(C)C)C(=O)N[C@@H](CC(N)=O)C(=O)N[C@@H](CO)C(=O)N[C@@H](CCCCN)C(=O)N[C@@H](CC(=O)O)C(=O)NCC(=O)N[C@@H](CCCCN)C(=O)N[C@@H](CCCCN)C(=O)N[C@@H](CCCCN)C(=O)N[C@@H](CCCCN)C(=O)N[C@@H](CCCCN)C(=O)N[C@@H](CCCCN)C(=O)N[C@@H](CO)C(=O)N[C@@H](CCCCN)C(=O)N[C@H](C(=O)N[C@@H](CCCCN)C(N)=O)[C@@H](C)O	GTPase KRas (KRAS, Homo sapiens, UniProt P01116)	SOS1-catalysed nucleotide exchange, inhibitor		570 nM, together with: 600 nM SOS1		nucleotide exchange half-time	780 ± 25 s
O=C(Nc1ccccc1)Nc1cccc2[nH]ccc12	SNCA	fibril formation, ThT fluorescence kinetics		100 µM, α-syn 2 µM, plateau phase	relative to: DMSO vehicle	maximum ThT fluorescence	10 ± 2%
CSCC[C@H](NC(=O)[C@H](Cc1c[nH]c2ccccc12)NC(=O)CNC(=O)[C@H](Cc1ccc(O)cc1)NC(=O)[C@H](C)NC(=O)[C@H](CCC(=O)O)NC(=O)[C@H](CCC(=O)O)NC(=O)[C@H](CCC(=O)O)NC(=O)[C@H](CCC(=O)O)NC(=O)[C@H](CCC(=O)O)NC(=O)[C@@H](CCC(=O)O)NC(=O)CNC(=O)C(CNCCN)CNCCN)C(=O)N[C@@H](CC(=O)O)C(=O)N[C@@H](Cc1ccccc1)C(N)=O	CCKBR (Homo sapiens, UniProt P32239)	calcium mobilisation, fura-2	HEK293 expressing human CCK2R			Hill coefficient	0.6
C[C@H](NC(=O)[C@H](C)NC(=O)[C@H](CCCNC(=N)N)NC(=O)[C@@H]1CCCN1C(=O)[C@H](CCCNC(=N)N)NC(=O)CNC(=O)c1ccc2c(c1)C1(OC2=O)c2ccc(O)cc2Oc2cc(O)ccc21)C(=O)N[C@H](C(=O)N[C@@H](Cc1ccccc1)C(=O)N[C@@H](C)C(=O)N[C@@H](CCC(=O)O)C(=O)NCC(N)=O)[C@@H](C)O	AKT1 (Homo sapiens, UniProt P31749)	substrate, CE-LIF		25 µM, pH 7.0, 30 °C, enzyme 6 nM, together with: ATP 1 mM		time to half phosphorylation	17 min
CCCCCCCCOP(=O)(CCCCCCCC)O[C@@H]1O[C@H](CO)[C@@H](O)[C@H](O)[C@H]1F (mixture of isomers)	GBA1 (Homo sapiens, UniProt P04062)	enzyme activity, irreversible inhibitor		pH 5.5, 37 °C, together with: 2,4-dinitrophenyl beta-D-glucopyranoside		kinact/Ki	182 M⁻¹ s⁻¹
[123I]c1ccc2nc(-c3ccc(-n4ccnn4)nc3)cn2c1	Amyloid-beta precursor protein, amyloid-beta (APP, Homo sapiens, UniProt P05067)	SPECT	Alzheimer's disease patients, cortical average	150 to 240 min	relative to: cerebellum	SUVR	1.26 ± 0.25
O=C(/C=C/c1ccc(O)c(O)c1)OCCCC[P+](c1ccccc1)(c1ccccc1)c1ccccc1	Catalase (Rattus norvegicus, UniProt P04762)		rat mitochondria	10 µM, 15 and 30 min		catalase activity	increased
CCCCCCCC(=O)Nc1ccc(N(C)C)nc1C	Cocaine esterase (CES2, Homo sapiens, UniProt O00748)	substrate		50 µM, pH 8, 37 °C, enzyme purity 4%		specific activity	42 pmol/min/µg
Cn1c(=S)c2[nH]c(SCCc3ccccc3)nc2n(C)c1=O	PGR	reporter gene, antagonist, MMTV-luciferase	T47D/A1-2	10 µM, 24 h, together with: 5 nM progesterone	relative to: maximal activity	remaining activity	15%
CC[C@H](C)[C@H](NC(=O)[C@@H]1CCCN1C(=O)CNC(=O)[C@H](CC(N)=O)NC(=O)[C@@H]1CCCN1C(=O)[C@H](CO)NC(=O)[C@H](Cc1ccccc1)NC(=O)[C@H](CC(C)C)NC(=O)[C@H](Cc1ccc(O)cc1)NC(=O)[C@H](CC(N)=O)NC(=O)[C@@H](N)[C@@H](C)O)C(=O)N[C@@H](C)C(=O)N[C@@H](CCCNC(=N)N)C(=O)N[C@@H](C)C(=O)N[C@@H](Cc1c[nH]c2ccccc12)C(N)=O	Ephrin type-B receptor 4, extracellular domain (EPHB4, Homo sapiens, UniProt P54760)	SPR		pH 7.4, 25 °C		kon	426000 M⁻¹ s⁻¹
CCCCCSc1nc2c([nH]1)c(=O)n(C)c(=O)n2C	PGR	reporter gene, antagonist, MMTV-luciferase	T47D/A1-2	10 µM, 24 h, together with: 5 nM progesterone	relative to: maximal activity	remaining activity	58%
CCCC[C@@H]1NC(=O)[C@@H](CC(C)C)NC(=O)[C@H](CCCCN)NC(=O)[C@@H](CO)NC(=O)[C@H](Cc2c[nH]cn2)NC(=O)[C@@H](Cc2c[nH]c3ccccc23)NC1=O	SNCA	inhibitor, ThT fluorescence		substoichiometric, 37 °C, together with: α-synuclein 40 µM		aggregation	inactive
CCCCCCOc1ccc(C(=O)OCC[N+]2(C)CC=CCC2)cc1 (centres unmarked)	CHRM2 (Homo sapiens, UniProt P08172)	antagonist, refers to: inositol phosphates	CHO co-expressing G15	together with: carbachol		cooperativity factor	0.0016 ± 0.0003
S=C(c1ccc(-c2cc(Cl)ccc2Cl)o1)N1CCN(CCc2cccnc2)CC1	NPR2	positive allosteric modulator, cGMP HTRF	HEK293 expressing GC-B	concentration not given, together with: CNP		activity	inactive
CC(C)(C)CCN1C[C@@H]2[C@@H](CNC(=O)c3cc(Cl)cc(Cl)c3)[C@@H]2C1.Cl	CACNA1H (Homo sapiens, UniProt O95180)	whole-cell patch clamp	HEK-293T, transfected	100 nM		reversal potential	37.2 ± 2.89 mV

Structure (SMILES)	target	assay	system	setting	scale	measurement	value
COCC(=O)N[C@@H](Cc1ccc(-c2cccc(OCc3ccccc3)c2)cc1)[C@H](O)[C@@H](O)C(=O)O	CDC34, with SCF-Cdc4 (Homo sapiens, UniProt P49427)	biochemical		concentration not given		activity	inactive
CC[C@H](C)[C@H](NC(=O)CNC(C)=O)C(=O)N[C@@H](CCCNC(=N)N)C(=O)N[C@@H](CCC(=O)O)C(=O)N[C@@H](C)C(=O)N[C@H](C(=O)N[C@@H](CC(C)C)C(=O)N[C@@H](CCCNC(=N)N)C(=O)N[C@@H](C)C(=O)N[C@@H](Cc1c[nH]c2ccccc12)C(=O)N[C@@H](CCC(=O)O)C(=O)N[C@@H](CCCNC(=N)N)C(=O)N[C@@H](CCCNC(=N)N)C(=O)N[C@@H](Cc1ccc(O)cc1)C(=O)NCC(=O)N[C@@H](Cc1ccccc1)C(=O)N1CCC[C@H]1C(=O)N[C@@H](CCCNC(=N)N)C(=O)N1CCC[C@H]1C(=O)N[C@@H](CC(C)C)C(=O)N[C@@H](CCCNC(=N)N)C(=O)N[C@@H](CO)C(=O)N[C@@H](CCC(=O)O)C(N)=O)[C@@H](C)O	Antirepressor protein CarS (carS, Myxococcus xanthus, UniProt Q06911)	ITC		pH 7.5, 20 °C		ΔH	-5.7 ± 0.05 kcal/mol
CC(C)[C@H](NC(=O)[C@@H]1CCCN1C(=O)[C@H](C)NC(=O)[C@H](CO)NC(=O)[C@H](C)NC(=O)[C@H](CC(N)=O)NC(=O)[C@H](CCC(=O)O)NC(=O)[C@@H](NC(=O)[C@H](CC(=O)O)NC(=O)[C@H](CCCCN)NC(=O)[C@H](C)NC(=O)[C@H](CCC(N)=O)NC(=O)[C@H](Cc1ccccc1)NC(=O)[C@H](C)NC(=O)[C@H](Cc1c[nH]c2ccccc12)NC(=O)[C@H](C)NC(=O)[C@@H](NC(=O)CN)C(C)C)C(C)C)C(=O)O	PCY1 Saponaria vaccaria	substrate, kinetic ITC		30 °C		Km	0.25 ± 0.01 µM
COc1ccc(C2=[N+]3C(=C(CCCCc4cn(C[C@@H]5[C@@H](O)[C@H](O)[C@@H](O)[C@@H]6O[C@H]56)nn4)c4ccc(-c5ccc(OC)cc5)n4[B-]3(F)F)C=C2)cc1	GBA1 (Homo sapiens, UniProt P04062, R534H)	tryptophan fluorescence		pH 7.4, complex with inhibitor		emission maximum	333 nm
CC1(C)CCN(Cc2ccc(C(=O)NC[C@]3(O)CCCN(c4cc(NCc5ccccc5)ncn4)C3)c(O)c2)CC1	ROCK1 (Homo sapiens, UniProt Q13464)	kinase activity, radiometric		10 µM, together with: 10 µM ATP		remaining activity	80%
CNc1ccccc1C(=O)O[C@H]1C[C@H](n2cnc3c(N)ncnc32)O[C@@H]1COP(=O)(O)OP(=O)(O)O	Unconventional myosin-Va (Gallus gallus, UniProt Q02440, D297C/G292C/I296C/S293C/V295G)	stopped-flow FRET		15 °C, together with: EDTA 4 mM		dissociation rate constant	42.2 ± 0.6 s⁻¹
COc1cc(N2CCN(C(=O)CN)CC2)ccc1Nc1ncc(Cl)c(Nc2ccccc2P(C)(C)=O)n1	ALK tyrosine kinase receptor, EML4-ALK fusion (ALK, Homo sapiens, UniProt Q9UM73)	degrader	NCI-H3122	0.5 µM		Dmax	76%
Cn1c(=S)c2[nH]c(SCCCc3ccccc3)nc2n(C)c1=O	Nr3c1 (Rattus norvegicus, UniProt P06536)	reporter gene, antagonist, MMTV-luciferase	T47D/A1-2	10 µM, 24 h, together with: 5 nM dexamethasone	relative to: maximal activity	remaining activity	45%
C=C1C(=O)O[C@@H]2[C@H]3C(CO)=CC(=O)C3=C(C)C[C@H](OC(=O)Cc3ccc(O)cc3)[C@@H]12	MAL12 (Saccharomyces cerevisiae S288c, UniProt P53341)	FT-IR		65.22 µM		amide I band position	1640 cm⁻¹
CCOC(=O)C1CCCN(C(=O)c2ccc(NC(=O)NC34CC5CC(C)(CC(C)(C5)C3)C4)cc2)C1 (centres unmarked)	EPHX2					lipophilic ligand efficiency	5.94
COc1ccc(C)cc1-c1ccc2[nH]c3ncc(/C=C/c4ccccc4)cc3c2c1	ALK (Homo sapiens, UniProt Q9UM73)	ELISA kinase		together with: ATP 300 µM		IC50	inactive
N#CCCN1CCN(C(=S)c2ccc(-c3cc(Cl)ccc3Cl)o2)CC1	NPR2	HTRF, refers to: cGMP	HEK293 overexpressing GC-B	together with: subthreshold CNP	relative to: saturating CNP	Emax	137%
C=CC[C@H]1OC(=O)CCNC(=O)[C@H](C)N(C)C(=O)[C@H]([C@@H](C)CC)N(C)C(=O)[C@H]([C@@H](C)CC)NC(=O)[C@@H]2[C@@H](C)CCN2C1=O	Platelet-derived growth factor receptor beta, extracellular domain (PDGFRB, Homo sapiens, UniProt P09619, F136A/F138A)	binding, surface plasmon resonance		concentration not given	relative to: wild-type PDGFR-β	KD fold change	~20.2 fold
CC12CC3CC(C)(C1)CC(NC(=O)Nc1ccc(C(=O)N4CCC(NS(C)(=O)=O)CC4)cc1)(C3)C2	EPHX2					lipophilic ligand efficiency	7.18
C=CC(=O)N1C[C@H](C)N(c2nc(OC[C@@]34CCCN3C[C@H](F)C4)nc3c(F)c(-c4ccc(F)c5sc(N)c(C#N)c45)c(C(F)(F)F)cc23)C[C@H]1C	GTPase KRas (KRAS, Homo sapiens, UniProt P01116, G12C)	cysteine-proteome mass spectrometry	NCI-H358	20 nM, 2 h		decrease of Cys12 peptide	98.9%
CCc1cc(C)nc2c(CC(=O)N(CC)CC)c(-c3ccc(OCC[18F])cc3)nn12	Tspo (Rattus norvegicus, UniProt P16257)	PET	rat, C6 glioma, tumour	60 min		tumour uptake, non-displaced tracer	~0.2 %ID/cc
